Experimental data of several laboratories.
Parts stem from different laboratories: compare values within a part only. Changes are numbered by the printed parent chain.

Sample 1
Target: inorganic phosphate, free oxyanion
Method: microfluidic competitive inhibition
Medium: in vitro, cell-free expressed
Concentration: not given
Setting: derived from inhibition constants, unchanged parent 615000 nM
Direction: lower = stronger binding
Starting sequence: PafA, mature enzyme, eGFP fusion (Elizabethkingia meningoseptica, UniProt Q9KJX5); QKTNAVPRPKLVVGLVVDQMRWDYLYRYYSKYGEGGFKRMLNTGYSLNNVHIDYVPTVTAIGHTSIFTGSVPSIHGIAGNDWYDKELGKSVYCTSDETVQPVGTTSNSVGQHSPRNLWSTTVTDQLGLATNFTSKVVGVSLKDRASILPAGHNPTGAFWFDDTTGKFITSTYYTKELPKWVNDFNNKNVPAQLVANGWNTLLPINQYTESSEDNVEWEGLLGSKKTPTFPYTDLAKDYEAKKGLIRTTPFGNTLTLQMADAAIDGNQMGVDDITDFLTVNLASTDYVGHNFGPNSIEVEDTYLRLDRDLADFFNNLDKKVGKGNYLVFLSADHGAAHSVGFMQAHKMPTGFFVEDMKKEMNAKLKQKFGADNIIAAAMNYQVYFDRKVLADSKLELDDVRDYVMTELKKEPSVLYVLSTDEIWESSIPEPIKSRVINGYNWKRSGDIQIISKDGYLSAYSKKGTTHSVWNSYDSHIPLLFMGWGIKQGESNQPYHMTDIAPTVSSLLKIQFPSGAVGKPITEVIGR
`M356G` — result for “phosphate dissociation constant”: 570 µM.
`S426G`: “phosphate dissociation constant” 457 µM.
`S119G`: “phosphate dissociation constant” 396 µM.
Under “phosphate dissociation constant”, `A259V` is recorded as 611 µM.
`G438A` — result for “phosphate dissociation constant”: 297 µM.
Under “phosphate dissociation constant”, `L281V` is recorded as 768 µM.

Sample 2
Target: Prothrombin, mature alpha-thrombin (F2, Homo sapiens, UniProt P00734)
Method: aptamer microarray, sandwich
Form: DNA with 2'F-ANA
Medium: in vitro
Concentration: 200 nM
Setting: whole 15-mer aptamer, many near background
Together with: Cy3 exosite-II aptamer, 400 nM
Direction: higher = stronger binding
Oligonucleotide: GGTTGGTGTGGTTGG
For `2'F-ANA at 1 2 3 6 7 8 9 10 11 12 13 14`, “mean fluorescence intensity” read 57.5 a.u.
Under “mean fluorescence intensity”, `2'F-ANA at 2 3 4 10 11 12 13` is recorded as 279 a.u.
For `2'F-ANA at 1 2 3 4 8 9 10 13 14`, “mean fluorescence intensity” read 63.1 a.u.
`2'F-ANA at 1 2 3 5 6 9 11 12 14`: “mean fluorescence intensity” 45.7 a.u.
For `2'F-ANA at 1 2 3 5 6 8 11 13`, “mean fluorescence intensity” read 51.5 a.u.
Under “mean fluorescence intensity”, `2'F-ANA at 8 9 10 11 12` is recorded as 189 a.u.
`2'F-ANA at 2 7 8 9 11 13 14`: “mean fluorescence intensity” 139 a.u.
`2'F-ANA at 1 4 6 8 12 13` — result for “mean fluorescence intensity”: 217 a.u.

Sample 3
Target: UDP-N-acetylglucosamine--peptide N-acetylglucosaminyltransferase 110 kDa subunit (OGT, Homo sapiens, UniProt O15294)
UniProt O15294, sequence (whole entry, looked up): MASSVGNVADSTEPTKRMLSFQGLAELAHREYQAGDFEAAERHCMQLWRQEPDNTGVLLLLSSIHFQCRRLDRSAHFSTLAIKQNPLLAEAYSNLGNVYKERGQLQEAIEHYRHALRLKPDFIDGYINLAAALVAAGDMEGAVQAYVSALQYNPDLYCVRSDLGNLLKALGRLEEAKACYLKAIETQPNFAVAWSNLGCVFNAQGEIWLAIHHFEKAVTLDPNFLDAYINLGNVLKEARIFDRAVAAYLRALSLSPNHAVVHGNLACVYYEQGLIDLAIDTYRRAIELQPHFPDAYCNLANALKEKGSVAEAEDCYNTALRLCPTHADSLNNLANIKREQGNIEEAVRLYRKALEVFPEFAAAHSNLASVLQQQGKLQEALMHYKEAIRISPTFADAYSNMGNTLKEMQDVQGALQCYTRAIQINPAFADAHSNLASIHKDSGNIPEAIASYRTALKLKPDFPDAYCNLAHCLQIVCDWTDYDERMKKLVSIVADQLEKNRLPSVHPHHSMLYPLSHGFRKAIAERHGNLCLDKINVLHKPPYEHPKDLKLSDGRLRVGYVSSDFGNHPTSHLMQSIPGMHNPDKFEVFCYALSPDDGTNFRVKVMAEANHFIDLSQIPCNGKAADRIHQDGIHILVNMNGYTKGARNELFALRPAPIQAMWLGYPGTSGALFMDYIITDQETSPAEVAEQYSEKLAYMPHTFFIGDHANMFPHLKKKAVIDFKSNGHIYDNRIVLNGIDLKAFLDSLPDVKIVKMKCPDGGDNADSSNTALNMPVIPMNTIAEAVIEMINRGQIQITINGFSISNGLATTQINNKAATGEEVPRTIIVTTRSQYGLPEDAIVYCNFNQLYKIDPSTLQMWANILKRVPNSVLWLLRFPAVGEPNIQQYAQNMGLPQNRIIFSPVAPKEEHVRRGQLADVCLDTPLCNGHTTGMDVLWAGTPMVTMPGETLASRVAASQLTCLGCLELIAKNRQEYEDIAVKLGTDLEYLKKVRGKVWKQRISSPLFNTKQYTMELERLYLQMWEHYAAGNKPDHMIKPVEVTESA
Observed: phage display binding
Method: phage display panning NGS
Form: peptide
Baseline: OGT-panned over input library
`QAHRWPFHFKQHSFW`: “log2 fold enrichment” 3.55.
For `QWHPTDHHQWRVHDH`, “log2 fold enrichment” read 3.38.
`YPPVYVIQIPMAQQH` — result for “log2 fold enrichment”: 2.58.

Single results of other studies
For `PhoQ, residues 284 288 289 292 302 303 AGHLVA`, the fold induction was 1.25 (PhoP, residues 12 14 15 18 19 HLGGL (Escherichia coli, UniProt P23836); Sort-seq, refers to: YFP reporter; E. coli; PhoQ-PhoP variant library, together with: 10 µM Mg2+; baseline: high Mg2+ state, higher = stronger signaling).

Repeated from above (sample 1):
Under “phosphate dissociation constant”, `L281V` is recorded as 768 µM.
